Published values collected from several papers.
Lines come from different studies, so protocols differ. Values joined by “and” are separate records of one study, mostly repeats; a detail may differ. Numbers after ± are the reported error.
CASP4: Caspase-4 (CASP4, Homo sapiens, UniProt P49662)
Chain of UniProt P49662 (whole entry, looked up): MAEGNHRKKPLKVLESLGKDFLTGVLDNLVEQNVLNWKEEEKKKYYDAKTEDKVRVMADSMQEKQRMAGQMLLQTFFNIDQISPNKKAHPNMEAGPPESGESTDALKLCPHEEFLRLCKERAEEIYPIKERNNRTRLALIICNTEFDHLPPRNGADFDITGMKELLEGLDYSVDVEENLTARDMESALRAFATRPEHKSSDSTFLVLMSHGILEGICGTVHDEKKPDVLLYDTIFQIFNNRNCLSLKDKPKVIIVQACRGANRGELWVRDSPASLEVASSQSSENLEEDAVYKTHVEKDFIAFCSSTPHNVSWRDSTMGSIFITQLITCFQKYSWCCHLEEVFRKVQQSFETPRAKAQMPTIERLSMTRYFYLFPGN
CASP9: Caspase-9 (CASP9, Homo sapiens, UniProt P55211)
Chain of UniProt P55211 (whole entry, looked up): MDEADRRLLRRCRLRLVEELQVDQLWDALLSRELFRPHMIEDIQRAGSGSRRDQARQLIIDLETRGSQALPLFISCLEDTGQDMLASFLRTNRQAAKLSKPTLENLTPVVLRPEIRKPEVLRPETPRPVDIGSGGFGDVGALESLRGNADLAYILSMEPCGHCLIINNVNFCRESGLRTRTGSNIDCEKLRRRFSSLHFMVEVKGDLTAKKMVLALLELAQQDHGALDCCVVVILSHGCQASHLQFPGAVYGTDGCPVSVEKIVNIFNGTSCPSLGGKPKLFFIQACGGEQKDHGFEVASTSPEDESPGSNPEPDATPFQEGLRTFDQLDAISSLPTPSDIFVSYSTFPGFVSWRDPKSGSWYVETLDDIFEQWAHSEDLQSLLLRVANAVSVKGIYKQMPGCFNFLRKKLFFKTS
USP5: Ubiquitin carboxyl-terminal hydrolase 5 (USP5, Homo sapiens, UniProt P45974)
Chain of UniProt P45974 (whole entry, looked up): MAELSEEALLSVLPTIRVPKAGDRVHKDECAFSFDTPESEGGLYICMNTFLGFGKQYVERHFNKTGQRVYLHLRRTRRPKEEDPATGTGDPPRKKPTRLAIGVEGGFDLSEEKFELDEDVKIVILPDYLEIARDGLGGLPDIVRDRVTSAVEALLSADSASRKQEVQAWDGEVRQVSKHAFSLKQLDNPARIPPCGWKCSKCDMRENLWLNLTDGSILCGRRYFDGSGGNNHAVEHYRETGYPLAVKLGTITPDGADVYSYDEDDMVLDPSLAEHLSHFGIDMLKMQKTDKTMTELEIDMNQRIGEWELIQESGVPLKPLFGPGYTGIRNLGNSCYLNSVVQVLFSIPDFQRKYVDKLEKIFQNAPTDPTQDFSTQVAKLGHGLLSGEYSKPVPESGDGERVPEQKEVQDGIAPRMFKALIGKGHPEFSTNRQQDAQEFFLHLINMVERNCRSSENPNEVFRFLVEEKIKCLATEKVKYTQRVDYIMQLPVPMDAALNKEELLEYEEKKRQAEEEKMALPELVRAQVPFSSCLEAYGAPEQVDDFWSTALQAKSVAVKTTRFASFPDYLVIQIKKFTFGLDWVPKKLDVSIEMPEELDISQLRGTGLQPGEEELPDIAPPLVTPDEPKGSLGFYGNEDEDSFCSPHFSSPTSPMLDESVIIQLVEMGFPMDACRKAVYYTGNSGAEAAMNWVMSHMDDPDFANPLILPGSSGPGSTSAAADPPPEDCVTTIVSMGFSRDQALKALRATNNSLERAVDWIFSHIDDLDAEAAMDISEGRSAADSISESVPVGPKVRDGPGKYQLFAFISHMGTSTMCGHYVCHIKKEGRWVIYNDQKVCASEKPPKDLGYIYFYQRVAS
INS: Insulin (INS, Bos taurus, UniProt P01317)
Chain of UniProt Q92633 (whole entry, unmodified, looked up): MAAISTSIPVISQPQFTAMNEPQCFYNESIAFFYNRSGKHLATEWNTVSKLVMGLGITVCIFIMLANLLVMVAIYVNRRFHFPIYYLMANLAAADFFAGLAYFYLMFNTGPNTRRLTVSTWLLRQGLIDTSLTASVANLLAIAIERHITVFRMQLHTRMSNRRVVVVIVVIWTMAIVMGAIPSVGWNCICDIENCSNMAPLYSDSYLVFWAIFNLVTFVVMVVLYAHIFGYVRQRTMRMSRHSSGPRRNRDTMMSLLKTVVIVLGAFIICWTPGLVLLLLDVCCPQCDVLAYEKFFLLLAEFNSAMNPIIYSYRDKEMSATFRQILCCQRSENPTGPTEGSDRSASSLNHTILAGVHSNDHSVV
Chain of UniProt Q13148 (whole entry, looked up): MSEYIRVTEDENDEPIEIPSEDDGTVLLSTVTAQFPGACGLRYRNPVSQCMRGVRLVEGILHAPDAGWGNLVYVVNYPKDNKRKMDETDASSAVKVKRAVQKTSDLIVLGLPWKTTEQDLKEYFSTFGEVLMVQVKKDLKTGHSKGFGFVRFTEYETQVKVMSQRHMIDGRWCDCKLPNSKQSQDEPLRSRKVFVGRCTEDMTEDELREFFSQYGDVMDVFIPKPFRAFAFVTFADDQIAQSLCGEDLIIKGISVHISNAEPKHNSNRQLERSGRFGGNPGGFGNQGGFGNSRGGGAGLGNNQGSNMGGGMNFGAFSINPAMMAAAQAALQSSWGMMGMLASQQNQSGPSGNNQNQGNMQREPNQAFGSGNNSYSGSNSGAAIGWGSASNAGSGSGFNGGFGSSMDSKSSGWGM
Chain of UniProt Q06180 (whole entry, looked up): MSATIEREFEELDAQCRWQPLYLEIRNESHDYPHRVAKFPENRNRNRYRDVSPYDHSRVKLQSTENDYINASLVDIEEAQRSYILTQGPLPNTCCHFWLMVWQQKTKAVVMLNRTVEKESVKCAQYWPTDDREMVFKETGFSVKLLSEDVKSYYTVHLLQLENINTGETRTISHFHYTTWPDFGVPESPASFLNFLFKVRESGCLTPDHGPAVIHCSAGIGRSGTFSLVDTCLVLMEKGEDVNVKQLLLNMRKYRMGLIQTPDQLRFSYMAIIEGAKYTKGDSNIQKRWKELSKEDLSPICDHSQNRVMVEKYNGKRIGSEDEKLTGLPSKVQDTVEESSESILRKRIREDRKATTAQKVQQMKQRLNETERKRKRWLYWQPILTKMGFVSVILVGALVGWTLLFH
Chain of UniProt P01317 (whole entry, looked up): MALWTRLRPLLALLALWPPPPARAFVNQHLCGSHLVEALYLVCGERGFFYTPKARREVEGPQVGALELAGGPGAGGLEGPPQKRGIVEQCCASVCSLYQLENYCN
Chain of UniProt Q9NSD7 (whole entry, unmodified, looked up): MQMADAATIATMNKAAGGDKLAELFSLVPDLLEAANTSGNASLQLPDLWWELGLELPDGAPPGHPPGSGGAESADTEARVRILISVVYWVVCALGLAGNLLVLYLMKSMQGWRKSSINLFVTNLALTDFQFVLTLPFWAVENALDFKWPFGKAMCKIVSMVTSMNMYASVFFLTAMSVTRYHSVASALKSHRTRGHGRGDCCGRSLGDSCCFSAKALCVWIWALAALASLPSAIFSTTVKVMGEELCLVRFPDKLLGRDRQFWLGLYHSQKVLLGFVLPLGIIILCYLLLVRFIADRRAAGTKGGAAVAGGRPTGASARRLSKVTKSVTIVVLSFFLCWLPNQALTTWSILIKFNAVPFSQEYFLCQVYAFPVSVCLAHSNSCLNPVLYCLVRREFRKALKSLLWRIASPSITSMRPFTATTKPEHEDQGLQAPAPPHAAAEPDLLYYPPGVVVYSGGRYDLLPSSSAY
Chain of UniProt P0ABQ4 (whole entry, looked up): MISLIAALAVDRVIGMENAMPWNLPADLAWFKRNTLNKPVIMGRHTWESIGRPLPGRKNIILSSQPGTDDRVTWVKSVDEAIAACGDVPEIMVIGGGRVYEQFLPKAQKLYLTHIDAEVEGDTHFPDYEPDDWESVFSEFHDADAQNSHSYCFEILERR
Chain of UniProt Q3UFF7 (whole entry, looked up): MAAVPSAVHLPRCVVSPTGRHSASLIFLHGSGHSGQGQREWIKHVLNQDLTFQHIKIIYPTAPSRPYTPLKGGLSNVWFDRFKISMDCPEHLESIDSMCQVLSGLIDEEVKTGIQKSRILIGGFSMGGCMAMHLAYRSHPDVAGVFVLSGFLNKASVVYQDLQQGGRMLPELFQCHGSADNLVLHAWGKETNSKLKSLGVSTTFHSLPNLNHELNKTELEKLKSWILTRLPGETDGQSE
Chain of UniProt P55317 (whole entry, looked up): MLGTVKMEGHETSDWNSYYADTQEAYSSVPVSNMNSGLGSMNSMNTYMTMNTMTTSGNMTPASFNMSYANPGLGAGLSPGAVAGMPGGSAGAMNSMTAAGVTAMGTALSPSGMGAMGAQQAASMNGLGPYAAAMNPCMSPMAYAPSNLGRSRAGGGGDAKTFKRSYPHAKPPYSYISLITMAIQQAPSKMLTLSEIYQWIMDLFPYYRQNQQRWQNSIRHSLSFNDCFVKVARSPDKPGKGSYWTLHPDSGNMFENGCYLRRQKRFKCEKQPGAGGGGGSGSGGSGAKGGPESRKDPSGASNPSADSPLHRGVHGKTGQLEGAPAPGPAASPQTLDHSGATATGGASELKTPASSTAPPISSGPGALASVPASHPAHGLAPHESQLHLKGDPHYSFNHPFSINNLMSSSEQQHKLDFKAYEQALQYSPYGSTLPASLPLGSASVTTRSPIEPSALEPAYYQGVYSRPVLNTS
Chain of UniProt Q969F8 (whole entry, unmodified, looked up): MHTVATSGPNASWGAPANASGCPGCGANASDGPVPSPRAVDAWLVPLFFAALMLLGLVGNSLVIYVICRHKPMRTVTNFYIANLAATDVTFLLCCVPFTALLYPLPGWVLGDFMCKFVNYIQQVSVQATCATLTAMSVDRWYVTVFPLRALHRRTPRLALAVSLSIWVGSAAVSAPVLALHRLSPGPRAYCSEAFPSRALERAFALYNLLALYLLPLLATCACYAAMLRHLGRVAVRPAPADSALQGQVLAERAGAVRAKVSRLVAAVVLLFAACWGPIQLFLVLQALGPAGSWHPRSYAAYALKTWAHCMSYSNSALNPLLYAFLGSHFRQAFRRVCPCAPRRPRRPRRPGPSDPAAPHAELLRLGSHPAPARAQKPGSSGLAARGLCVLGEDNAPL

| SMILES | target | test | test system | setting | how to read | measurement | result |
| --- | --- | --- | --- | --- | --- | --- | --- |
| Cc1cnc2nc1Nc1cccc(c1)COC/C=C/COCc1cc(ccc1OCCN1CCOCC1)N2 | MET (Homo sapiens, UniProt P08581, Y1235D) |  |  | concentration not given | relative to: untreated control | remaining activity | 100% |
| CC(=O)N[C@@H](CC(C)C)C(=O)N[C@@H](CCC(N)=O)C(=O)N[C@@H](CO)C(=O)N[C@@H](CC(=O)O)C(=O)COC(=O)c1c(C)cccc1C | CASP4 | inhibitor |  | recombinant enzyme |  | kobs/[I] | 36400 M⁻¹ s⁻¹ |
| COC(=O)c1cccc(C(=O)c2c[nH]c3c(Cl)cccc23)n1 | AHR (Homo sapiens, UniProt P35869) | reporter gene, agonist, XRE luciferase | HepG2 |  | relative to: ITE | Emax | 70 ± 1% |
| C=CC(=O)N1[C@H](c2ccc3c(c2)OCO3)c2[nH]c3ccccc3c2C[C@H]1C(=O)N1CCOCC1 | Hepatocyte nuclear factor 3-alpha (FOXA1, Homo sapiens, UniProt P55317) | ChIP-seq | 22Rv1 | 20 µM, 3 h |  | sites with changed binding | ~10% |
| CC(=O)N[C@H](C(=O)N[C@@H](CCC(N)=O)C(=O)N[C@@H](CO)C(=O)N[C@@H](CC(=O)O)C(=O)COC(=O)c1c(C)cccc1C)C(C)(C)C | CASP9 | enzyme activity, inhibitor |  |  |  | kinact/KI | 54700 M⁻¹ s⁻¹ |
| Fc1ccc(Nc2nc(NC3CCCCC3)c3cc(Br)ccc3n2)cc1F | ADRB2 (Homo sapiens, UniProt P07550, F133L) | β-arrestin2 recruitment, antagonist, BRET |  | mutant F133L | relative to: isoprenaline maximal response | maximal inhibition | 8.8% |
| CC[C@H](C)[C@@H]1NC(=O)[C@H](Cc2ccccc2)NC(=O)[C@H](CCC(=O)O)NC(=O)[C@H](CCCNC(=N)N)NC(=O)CNC(=O)[C@@H](NC(=O)[C@H](CC(C)C)NC(=O)[C@H](CCCNC(=N)N)NC(=O)[C@@H](NC(=O)CNC(=O)[C@H](Cc2ccc(O)cc2)NC(=O)[C@@H]2CCCN2C(=O)[C@H](C)NC(=O)[C@H](C)NC(=O)[C@@H](N)CCCNC(=N)N)C(C)C)CSSC[C@@H]2NC(=O)[C@@H](NC(=O)[C@H](CO)NC(=O)[C@H](CO)NC(=O)[C@H](CO)NC(=O)[C@H](CC(C)C)NC(=O)CNC(=O)[C@H](C)NC(=O)[C@H](CC(C)C)NC(=O)[C@@H](NC(=O)[C@@H](N)CC(=O)O)C(C)C)CSSC[C@H](NC(=O)CNC(=O)[C@H](Cc3c[nH]c4ccccc34)NC(=O)[C@H](CCCCN)NC2=O)C(=O)N[C@@H](CO)C(=O)N[C@@H](CCCCN)C(=O)N[C@@H](CO)C(=O)N[C@@H](CCC(=O)O)C(=O)N[C@@H]([C@@H](C)CC)C(=O)N[C@@H](CO)C(=O)N[C@@H](CO)C(=O)N[C@@H](CC(C)C)C(=O)N[C@H](C(=O)O)CSSC[C@@H](C(=O)NCC(=O)NCC(=O)N[C@@H](CO)C(=O)N[C@@H](CCCNC(=N)N)C(=O)N[C@@H](Cc2c[nH]c3ccccc23)C(=O)O)NC(=O)[C@H]([C@@H](C)O)NC(=O)[C@H](Cc2ccccc2)NC(=O)[C@H]([C@@H](C)CC)NC(=O)[C@H](C(C)C)NC(=O)[C@H](C)NC(=O)[C@H](CCCNC(=N)N)NC1=O | RXFP3 (Homo sapiens, UniProt Q9NSD7, V375A) |  | HEK-293T |  | relative to: wild type | Emax | 87.1 ± 2.4% |
| COc1ccc(N(N=C2Sc3ccccc3C2=O)C(C)=O)cc1 | USP5 | enzyme activity, inhibitor |  | 17 µM |  | inhibition | 61% |
| Cn1c(=O)n(C2CCC(=O)NC2=O)c2ccc(C3CCN(CC(=O)Nc4cccc(CS(=O)(=O)N5CC[C@H](Nc6cccc(-c7sc(C(=O)O)c(OCC(=O)O)c7Cl)c6)CC5(C)C)c4)CC3)cc21 (stereo partly drawn) | Tyrosine-protein phosphatase non-receptor type 2 (Ptpn2, Mus musculus, UniProt Q06180) | degrader, Western blot | B16-F10 | 1 µM |  | remaining protein | 0.6% and 0.7% |
| CCCCCC=CC=C1C(=O)C=CC1CC=CCCCC(=O)O (stereo not drawn) | Pseudouridylate synthase RPUSD2 (RPUSD2, Homo sapiens, UniProt Q8IZ73) | competitive isoTOP-ABPP | Ramos soluble proteome | 100 µM, 60 min, together with: iodoacetamide probe | relative to: DMSO over compound-treated, higher = stronger cysteine blockade | isoTOP-ABPP competition ratio | 9.1 |
| CCN(CC)C(CO)c1cccc2c(C)c(C)oc12 (stereo not drawn) | LPAR1 (Homo sapiens, UniProt Q92633, W210A) | G-protein dissociation, agonist, NanoBiT | HEK-293T | 1 nM, W210A mutant | relative to: baseline luminescence | fold change | 0.938 and 1.01 and 0.954 and 0.929 and 1.02 |
| CC(=O)N[C@@H](CCC(C)C)C(=O)N[C@@H](CCCC(=O)O)C(=O)N[C@@H](CO)C(=O)N[C@@H](CC(=O)O)C(=O)COC(=O)c1c(C)cccc1C | CASP4 | enzyme activity, inhibitor |  |  |  | kinact/KI | 31600 M⁻¹ s⁻¹ |
| CC[C@H](C)[C@H](NC(=O)[C@H](Cc1ccccc1)NC(=O)[C@H](CCC(=O)O)NC(=O)[C@H](CCCCN)NC(=O)[C@H](C)NC(=O)[C@H](C)NC(=O)[C@H](CCC(N)=O)NC(=O)CNC(=O)[C@H](CCC(=O)O)NC(=O)[C@H](CC(C)C)NC(=O)[C@H](Cc1ccc(O)cc1)NC(=O)[C@H]1CCC[C@@H]1NC(=O)[C@H](CO)NC(=O)C(C)(C)NC(=O)[C@H](CC(=O)O)NC(=O)[C@H](CO)NC(=O)[C@@H](NC(=O)[C@H](Cc1ccccc1)NC(=O)[C@@H](NC(=O)CNC(=O)[C@H](CCC(=O)O)NC(=O)[C@H](C)NC(=O)[C@@H](N)Cc1c[nH]cn1)[C@@H](C)O)[C@@H](C)O)C(=O)N[C@@H](C)C(=O)N[C@@H](Cc1c[nH]c2ccccc12)C(=O)N[C@@H](CC(C)C)C(=O)N[C@H](C(=O)N[C@@H](CCCCN)C(=O)NCC(=O)N[C@@H](CCCNC(=N)N)C(N)=O)C(C)C | GLP1R (Homo sapiens, UniProt P43220) | agonist |  | concentration not given, 15 min | relative to: maximum | cAMP production | 97 ± 2% |
| CC(=O)N[C@@H](CCCNC(=N)N)C(=O)N[C@H](C(=O)N[C@@H](CCCCN)C(=O)N[C@@H](CO)C(=O)N[C@@H](CCCNC(=N)N)C(=O)N[C@H](C(=O)N[C@@H](Cc1c[nH]c2ccccc12)C(=O)N[C@@H](C)C(=O)N1Cc2ccccc2C[C@H]1C(N)=O)[C@@H](C)OP(=O)(O)O)[C@@H](C)O | 14-3-3 protein epsilon (Homo sapiens, UniProt P62258) | thermal stability, DSF |  | 30 µM, pH 7.4 |  | ΔTm | 4.43 °C |
| N#CN1CC[C@H](C(=O)Nc2nc3c(s2)CN(C(=O)Cn2cc(COCCOCCOCCOCCNC(=O)CCCC[C@@H]4SC[C@@H]5NC(=O)N[C@@H]54)nn2)CC3)C1 | USP5 | probe binding, affinity probe, neutravidin pull-down LC-MS/MS | HEK293T, cell lysate | 5 µM, 1 h, mean of three replicates, unit not given | higher = more pulled down | iBAQ abundance | 821000 |
| CSCC[C@H](NC(=O)[C@H](CC(C)C)NC(=O)CNC(=O)[C@@H](NC(=O)[C@H](Cc1ccccc1)NC(=O)[C@H](CO)NC(=O)[C@H](CC(=O)O)NC(=O)[C@@H](NC(=O)[C@H](CCCCN)NC(=O)[C@@H](N)Cc1c[nH]cn1)[C@@H](C)O)C(C)C)C(N)=O | TACR1 (Homo sapiens, UniProt P25103) | calcium mobilization |  |  | relative to: 1 µM ionomycin | Emax | 89 ± 10% |
| NC(=S)N/N=C1\C(=O)Nc2ccccc21 | USP5 | enzyme activity, inhibitor |  | 17 µM |  | inhibition | 7% |
| Nc1nc(SCc2ccc(Cl)cc2)nn1S(=O)(=O)c1ccc(-c2ccccc2)s1 | Lysophospholipase-like protein 1 (Mus musculus, UniProt Q3UFF7) | enzyme activity, activator, gel-based ABPP | purified protein | concentration not given, together with: FP-rhodamine | relative to: DMSO | probe labeling increase | 1.6 fold |
| CN(C)c1ccc2c3c(cccc13)C(=O)N(CCc1ccc(S(N)(=O)=O)cc1)C2=O | CA2 (Homo sapiens, UniProt P00918) | binding |  |  |  | emission maximum | 544 nm |
| CC1CCCc2nc(N)nc(N)c21 (stereo not drawn) | folA (Escherichia coli, UniProt P0ABQ4) | conformational gating model |  |  |  | koff from excited state | 1900 s⁻¹ |
| CCCCCC(O)/C=C/C=O (stereo not drawn) | Adenosine kinase (ADK, Homo sapiens, UniProt P55263) | competitive isoTOP-ABPP | proteome, soluble, MDA-MB-231 | 100 µM, together with: iodoacetamide probe | relative to: DMSO over compound-treated, higher = stronger cysteine blockade | isoTOP-ABPP competition ratio | 2.4 |
| CC(=O)N[C@@H](Cc1c[nH]c2ccccc12)C(=O)N[C@@H](CCC(=O)O)C(=O)N[C@@H](Cc1c[nH]cn1)C(=O)N[C@@H](CC(=O)O)C(=O)COC(=O)c1c(C)cccc1C | CASP4 | enzyme activity, inhibitor |  |  |  | kinact/KI | 51800 M⁻¹ s⁻¹ |
| O=C1c2sc(-c3ccc(N4CCC(F)C4)nc3F)nc2CCN1c1cccnc1 (stereo not drawn) | TAR DNA-binding protein 43, aggregated (TARDBP, Homo sapiens, UniProt Q13148) | radioligand binding | human, FTLD-TDP type B sarkosyl-insoluble extract | 4.94 nM |  | specific binding | 0.245 nM and 0.385 nM |
| C=CCNC(=O)c1ccc2nc(-c3ccco3)c(-c3ccco3)nc2c1 | USP5 | enzyme activity, inhibitor |  | 17 µM |  | inhibition | 66% |
| CNC(=N)NCCC[C@H](NC(=O)[C@H](CC(C)C)NC(=O)NNC(=O)[C@H](Cc1ccccc1)NC(=O)[C@@H](NC(=O)[C@H](CC(N)=O)NC(=O)[C@@H]1C[C@@H](O)CN1C(=O)[C@@H](Cc1ccc(O)cc1)NC(C)=O)[C@@H](C)O)C(=O)N[C@@H](Cc1c[nH]c2ccccc12)C(N)=O | KiSS-1 receptor (KISS1R, Homo sapiens, UniProt Q969F8, Q123A) | inositol phosphate, agonist | HEK293 |  |  | Emax | 91.4% |
| CC(C)(C(=O)N1CCC(Nc2nc3c(c(=O)[nH]2)CCCC3)CC1)c1ccc(Cl)cc1 | MRGPRD (Homo sapiens, UniProt Q8TDS7) | miniGq recruitment, agonist, BRET | HEK293T | wild type | relative to: wild type | Emax | 102 ± 3.1% |
| CC[C@H](C)[C@H](NC(=O)[C@H](CC(=O)O)NC(C)=O)C(=O)N[C@H](C(=O)N[C@H](C(=O)N[C@@H](CCCNC(=N)N)C(=O)N[C@@H](Cc1ccc(O)cc1)C(=O)N[C@@H](CC(N)=O)C(=O)NCC(=O)N[C@@H](CCCCN)C(=O)N[C@H](C(=O)N[C@@H](Cc1c[nH]c2ccccc12)C(=O)N[C@@H](Cc1c[nH]c2ccccc12)C(=O)N[C@@H](CCCNC(=N)N)C(=O)O)C(C)C)[C@@H](C)O)[C@@H](C)O | INS | circular dichroism | INS-peptide complex | 800 min, final heating stage, together with: INS 350 µM |  | α-helix content | 62% |
| c1ccc(-c2nc3ccccc3[nH]2)cc1 | USP5 | enzyme activity, inhibitor |  | 17 µM |  | inhibition | 26% |
| CC(=O)N[C@@H](CCC(C)C)C(=O)N[C@H](C(=O)N[C@@H](CO)C(=O)N[C@@H](CC(=O)O)C(=O)COC(=O)c1c(C)cccc1C)C(C)(C)C | CASP9 | enzyme activity, inhibitor |  |  |  | kinact/KI | 48100 M⁻¹ s⁻¹ |
| CC(=O)N[C@@H](CCCCN)C(=O)N[C@H](C(=O)N[C@@H](Cc1ccc(O)cc1)C(=O)N[C@@H](Cc1ccc(O)cc1)C(=O)N[C@@H](CCCNC(=N)N)C(=O)N[C@@H](Cc1ccc(O)cc1)C(=O)N[C@@H](CC(N)=O)C(=O)NCC(=O)N[C@@H](CCCCN)C(=O)N[C@H](C(=O)N[C@@H](Cc1c[nH]c2ccccc12)C(=O)N[C@@H](Cc1c[nH]c2ccccc12)C(=O)N[C@@H](CCCNC(=N)N)C(=O)O)C(C)C)C(C)C | INS | circular dichroism |  | 0 min, initial stage, together with: INS 350 µM |  | β-strand content | 28% |

Excerpt of the above:
| SMILES | target | test | test system | setting | how to read | measurement | result |
| --- | --- | --- | --- | --- | --- | --- | --- |
| C=CC(=O)N1[C@H](c2ccc3c(c2)OCO3)c2[nH]c3ccccc3c2C[C@H]1C(=O)N1CCOCC1 | Hepatocyte nuclear factor 3-alpha (FOXA1, Homo sapiens, UniProt P55317) | ChIP-seq | 22Rv1 | 20 µM, 3 h |  | sites with changed binding | ~10% |
| COc1ccc(N(N=C2Sc3ccccc3C2=O)C(C)=O)cc1 | USP5 | enzyme activity, inhibitor |  | 17 µM |  | inhibition | 61% |
| NC(=S)N/N=C1\C(=O)Nc2ccccc21 | USP5 | enzyme activity, inhibitor |  | 17 µM |  | inhibition | 7% |
| CC1CCCc2nc(N)nc(N)c21 (stereo not drawn) | folA (Escherichia coli, UniProt P0ABQ4) | conformational gating model |  |  |  | koff from excited state | 1900 s⁻¹ |
| CCCCCC(O)/C=C/C=O (stereo not drawn) | Adenosine kinase (ADK, Homo sapiens, UniProt P55263) | competitive isoTOP-ABPP | proteome, soluble, MDA-MB-231 | 100 µM, together with: iodoacetamide probe | relative to: DMSO over compound-treated, higher = stronger cysteine blockade | isoTOP-ABPP competition ratio | 2.4 |
